Experimental data gathered from unrelated publications.
Compare with care: the assays were run in different laboratories. Numbers after ± are the reported error.
Matrix: plasma

| Compound | test | test system | conditions | Cmax |
| --- | --- | --- | --- | --- |
| COc1ccc(C[C@@H]2NC(=O)[C@H]([C@@H](C)O)NC(=O)[C@@H]3[C@@H]4CCN3C(=O)[C@@H]3Cc5cn(c6ccc(F)cc56)CCCCCCN(Cc5ccc(cc5)CCNC(=O)[C@]5(C)CCCN5C2=O)C(=O)CCC(=O)N[C@@H](C)C(=O)N[C@H](CNC(=O)CCCCC[N+](C)(C)C)C(=O)N[C@@H](Cc2cccc(c2)CNC(=O)CO4)C(=O)N3)cc1 |  | fasted healthy humans | oral, 300 mg single dose, with 1800 mg Labrasol, geometric mean | 149 nM |
| Oc1ccc2ccc3c4ccccc4cc4ccc1c2c43 | UPLC-AMS | human | oral, 100 ng of [14C]-BaP | 9.48 ± 6.63 fg BaP equivalents/mL |
| Cc1ncc2n1-c1ccc(Cl)cc1C(c1ccccc1F)=NC2 |  | healthy human | oral, 2 mg, added: efavirenz 50 mg, no ritlecitinib | 8 ng/mL |
| Cc1cnc(C(=O)N[C@H]2CCCCC/C=C\[C@@H]3C[C@@]3(C(=O)NS(=O)(=O)C3CC3)NC(=O)[C@@H]3C[C@@H](Oc4nc5ccccc5c5ccccc45)CN3C2=O)cn1 |  | healthy human volunteers | oral, dose not given, alone, digoxin interaction study | 1210 ng/mL |
| CCCCCOc1ccc(-c2cc(-c3ccc(C(=O)N[C@H]4C[C@@H](O)[C@@H](O)NC(=O)[C@@H]5[C@@H](O)[C@@H](C)CN5C(=O)[C@H]([C@H](O)CC(N)=O)NC(=O)[C@H]([C@H](O)[C@@H](O)c5ccc(O)c(OS(=O)(=O)O)c5)NC(=O)[C@@H]5C[C@@H](O)CN5C(=O)[C@H]([C@@H](C)O)NC4=O)cc3)no2)cc1 |  | human paediatric patients 6 to sample C years | intravenous, 4.5 mg/kg once daily, day 7, geometric mean | 20600 ng/mL |
| C[C@@H](c1nc(-c2ccc(C#N)cc2)cs1)[C@](O)(Cn1cncn1)c1cc(F)ccc1F |  | human, both sexes | oral, 200 mg QD, day 12, added: midazolam 3 mg | 5000 ng/mL |
| CCCCCOc1ccc(-c2ccc(-c3ccc(C(=O)N[C@H]4C[C@@H](O)[C@@H](OCC[N+](C)(C)C)NC(=O)[C@@H]5[C@@H](O)[C@@H](C)CN5C(=O)[C@H]([C@@H](C)O)NC(=O)[C@H]([C@H](O)[C@@H](O)c5ccc(O)cc5)NC(=O)[C@@H]5C[C@@H](O)CN5C(=O)[C@H]([C@@H](C)O)NC4=O)cc3)cc2)cc1 |  | healthy human adults | subcutaneous, 10 mg, single dose, geometric mean | 105 ng/mL |
| C=CCNC1=C2C[C@@H](C)C[C@H](OC)[C@H](O)[C@@H](C)/C=C(\C)[C@H](OC(N)=O)[C@@H](OC)/C=C\C=C(/C)C(=O)NC(=CC1=O)C2=O |  | human cancer patients | intravenous, 150 mg/m^2 over 60 min, cycle 1 day 1, given alone | 2480 ± 836 ng/mL |
| COC(=O)N[C@H](C(=O)N1CCC[C@H]1C(=O)Nc1ccc([C@@H]2CC[C@@H](c3ccc(NC(=O)[C@@H]4CCCN4C(=O)[C@@H](NC(=O)OC)C(C)C)cc3)N2c2ccc(C(C)(C)C)cc2)cc1)C(C)C |  | healthy human volunteers | oral, dose not given, alone, pravastatin interaction study | 121 ng/mL |
| CCCNS(=O)(=O)Nc1ncnc(OCCOc2ncc(Br)cn2)c1-c1ccc(Br)cc1 |  | healthy adult humans, both sexes | oral, 10/40 mg fixed-dose combination, single dose, fasted | 210 ng/mL |

A few entries again:
| Compound | test | test system | conditions | Cmax |
| --- | --- | --- | --- | --- |
| Cc1ncc2n1-c1ccc(Cl)cc1C(c1ccccc1F)=NC2 |  | healthy human | oral, 2 mg, added: efavirenz 50 mg, no ritlecitinib | 8 ng/mL |
| Cc1cnc(C(=O)N[C@H]2CCCCC/C=C\[C@@H]3C[C@@]3(C(=O)NS(=O)(=O)C3CC3)NC(=O)[C@@H]3C[C@@H](Oc4nc5ccccc5c5ccccc45)CN3C2=O)cn1 |  | healthy human volunteers | oral, dose not given, alone, digoxin interaction study | 1210 ng/mL |
